Measured values pooled from the literature.
Every numbered part comes from another study and shows a few of its results, in no order. “And” joins repeats or separate records; there may be more than shown.
UniProt Q9UM73, sequence (whole entry, unmodified, looked up): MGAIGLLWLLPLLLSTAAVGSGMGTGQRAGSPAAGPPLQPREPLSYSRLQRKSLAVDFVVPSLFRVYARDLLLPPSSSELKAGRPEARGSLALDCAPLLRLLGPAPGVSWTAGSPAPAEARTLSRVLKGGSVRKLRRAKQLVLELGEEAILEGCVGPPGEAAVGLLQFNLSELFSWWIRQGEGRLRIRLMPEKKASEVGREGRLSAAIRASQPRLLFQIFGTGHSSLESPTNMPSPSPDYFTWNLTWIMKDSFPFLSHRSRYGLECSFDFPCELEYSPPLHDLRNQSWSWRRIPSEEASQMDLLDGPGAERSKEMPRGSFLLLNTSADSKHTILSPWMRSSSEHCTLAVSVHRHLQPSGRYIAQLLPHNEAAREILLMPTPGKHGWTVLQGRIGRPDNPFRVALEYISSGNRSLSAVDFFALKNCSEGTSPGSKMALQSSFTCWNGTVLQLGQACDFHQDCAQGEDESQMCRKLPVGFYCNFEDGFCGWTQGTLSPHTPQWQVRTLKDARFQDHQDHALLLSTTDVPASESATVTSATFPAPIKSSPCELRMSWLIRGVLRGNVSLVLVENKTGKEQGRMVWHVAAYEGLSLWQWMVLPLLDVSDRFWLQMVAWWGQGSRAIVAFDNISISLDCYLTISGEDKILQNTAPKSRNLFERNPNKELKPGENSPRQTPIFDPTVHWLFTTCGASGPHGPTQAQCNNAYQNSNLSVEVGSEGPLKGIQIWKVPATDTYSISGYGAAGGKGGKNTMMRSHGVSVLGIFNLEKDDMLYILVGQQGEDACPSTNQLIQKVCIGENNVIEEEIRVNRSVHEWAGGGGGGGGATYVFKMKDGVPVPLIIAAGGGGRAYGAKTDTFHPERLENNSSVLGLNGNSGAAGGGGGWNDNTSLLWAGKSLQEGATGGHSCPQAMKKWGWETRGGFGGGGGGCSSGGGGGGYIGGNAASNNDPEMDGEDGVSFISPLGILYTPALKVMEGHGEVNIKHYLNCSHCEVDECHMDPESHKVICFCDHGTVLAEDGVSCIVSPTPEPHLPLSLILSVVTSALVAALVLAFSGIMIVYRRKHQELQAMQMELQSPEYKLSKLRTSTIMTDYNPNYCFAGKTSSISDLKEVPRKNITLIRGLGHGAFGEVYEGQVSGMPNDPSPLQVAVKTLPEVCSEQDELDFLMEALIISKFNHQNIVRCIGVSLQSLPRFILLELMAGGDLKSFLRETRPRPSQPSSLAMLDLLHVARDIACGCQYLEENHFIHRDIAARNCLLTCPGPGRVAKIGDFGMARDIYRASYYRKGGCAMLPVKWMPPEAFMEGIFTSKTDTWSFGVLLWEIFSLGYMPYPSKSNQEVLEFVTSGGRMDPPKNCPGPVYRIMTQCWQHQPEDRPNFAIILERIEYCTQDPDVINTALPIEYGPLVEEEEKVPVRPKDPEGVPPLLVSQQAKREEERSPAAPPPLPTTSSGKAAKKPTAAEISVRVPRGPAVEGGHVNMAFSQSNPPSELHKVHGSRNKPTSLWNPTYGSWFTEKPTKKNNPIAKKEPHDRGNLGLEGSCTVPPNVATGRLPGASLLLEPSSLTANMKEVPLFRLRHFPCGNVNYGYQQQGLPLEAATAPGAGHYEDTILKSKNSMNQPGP
UniProt Q9P2K8, sequence (whole entry, unmodified, looked up): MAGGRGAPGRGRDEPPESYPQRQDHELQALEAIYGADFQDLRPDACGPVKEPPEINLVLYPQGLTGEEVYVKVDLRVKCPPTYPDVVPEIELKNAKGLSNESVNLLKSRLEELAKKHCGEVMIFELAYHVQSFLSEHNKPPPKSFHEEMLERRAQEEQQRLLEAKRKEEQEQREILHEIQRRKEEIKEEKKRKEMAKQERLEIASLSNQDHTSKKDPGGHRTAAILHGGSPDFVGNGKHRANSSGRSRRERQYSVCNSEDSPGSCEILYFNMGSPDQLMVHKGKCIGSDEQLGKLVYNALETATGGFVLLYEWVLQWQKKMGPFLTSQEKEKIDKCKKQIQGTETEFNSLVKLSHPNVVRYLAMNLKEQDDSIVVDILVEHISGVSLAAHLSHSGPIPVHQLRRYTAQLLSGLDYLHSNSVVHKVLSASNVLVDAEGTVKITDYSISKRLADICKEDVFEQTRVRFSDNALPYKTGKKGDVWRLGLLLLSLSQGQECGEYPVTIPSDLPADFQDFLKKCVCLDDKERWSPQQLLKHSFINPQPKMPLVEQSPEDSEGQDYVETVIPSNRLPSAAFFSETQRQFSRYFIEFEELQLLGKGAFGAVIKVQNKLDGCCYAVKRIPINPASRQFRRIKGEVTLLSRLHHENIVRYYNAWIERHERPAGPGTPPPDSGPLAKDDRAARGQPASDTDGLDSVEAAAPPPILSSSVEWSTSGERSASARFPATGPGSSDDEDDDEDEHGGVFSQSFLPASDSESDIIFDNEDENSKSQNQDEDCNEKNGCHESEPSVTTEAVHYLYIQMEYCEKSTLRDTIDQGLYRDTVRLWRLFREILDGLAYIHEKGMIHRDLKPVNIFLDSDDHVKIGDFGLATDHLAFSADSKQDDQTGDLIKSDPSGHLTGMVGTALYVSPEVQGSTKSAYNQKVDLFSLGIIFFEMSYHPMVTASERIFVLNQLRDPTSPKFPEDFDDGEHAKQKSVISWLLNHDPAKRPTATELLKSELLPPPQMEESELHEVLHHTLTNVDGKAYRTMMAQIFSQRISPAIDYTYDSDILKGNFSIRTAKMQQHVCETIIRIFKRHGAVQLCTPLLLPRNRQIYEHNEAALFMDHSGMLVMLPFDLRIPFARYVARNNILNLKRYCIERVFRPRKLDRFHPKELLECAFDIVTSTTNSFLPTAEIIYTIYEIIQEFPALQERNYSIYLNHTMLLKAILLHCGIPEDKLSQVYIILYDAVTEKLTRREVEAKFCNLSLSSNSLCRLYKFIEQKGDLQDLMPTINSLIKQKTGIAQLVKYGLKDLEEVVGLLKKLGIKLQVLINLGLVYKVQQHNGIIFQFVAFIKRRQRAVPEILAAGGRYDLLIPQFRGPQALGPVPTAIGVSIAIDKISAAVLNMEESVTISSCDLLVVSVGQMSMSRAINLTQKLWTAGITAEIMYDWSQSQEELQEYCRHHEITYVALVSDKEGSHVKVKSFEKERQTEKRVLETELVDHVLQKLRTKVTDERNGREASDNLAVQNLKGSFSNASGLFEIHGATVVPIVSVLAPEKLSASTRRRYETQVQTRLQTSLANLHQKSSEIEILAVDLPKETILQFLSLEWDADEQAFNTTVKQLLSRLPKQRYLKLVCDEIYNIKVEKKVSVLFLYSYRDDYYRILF
UniProt Q9UQB9, sequence (whole entry, looked up): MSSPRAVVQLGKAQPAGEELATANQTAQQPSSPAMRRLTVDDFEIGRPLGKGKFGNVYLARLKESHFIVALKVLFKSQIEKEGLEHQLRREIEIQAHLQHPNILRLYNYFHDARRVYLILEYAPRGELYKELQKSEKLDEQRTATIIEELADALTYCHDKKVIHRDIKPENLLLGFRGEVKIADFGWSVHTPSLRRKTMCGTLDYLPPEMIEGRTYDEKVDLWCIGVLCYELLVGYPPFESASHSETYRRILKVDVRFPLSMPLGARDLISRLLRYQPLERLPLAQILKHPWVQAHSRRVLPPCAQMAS

Series 1
SMILES: Cc1ccc(O)c(C)c1-c1cnc2[nH]c(-c3cnc(N4CCC5(CC4)CC(N4CCN(c6ccc(N[C@H]7CCC(=O)NC7=O)cc6F)CC4)CO5)nc3)cc2c1C#N (single isomer, unassigned)
Matrix: plasma
Route: oral
It gave 29900 ng·h/mL for AUC(0-t) (male Sprague-Dawley rat; 20 mg/kg).
For male beagle dog; 5 mg/kg: AUC(0-t) read 7460 ng·h/mL.
For female CD-1 mouse; 40 mg/kg: AUC(0-t) read 7440 ng·h/mL.
male cynomolgus monkey; 10 mg/kg — AUC(0-t): 1720 ng·h/mL.

Series 2
Compound: COc1cc(-c2nc3ccc(C(=O)NCCCN(C)C)cc3n2C2CCC2)cc(OC)c1OC
Observed: binding
Technique: competition with immobilised ligand
Concentration: 1 µM
For STK32C (Homo sapiens, UniProt Q86UX6): remaining binding read 89%.
The remaining binding was 95% (ALK (Homo sapiens, UniProt Q9UM73, C1156Y)).
The remaining binding was 90% (eIF-2-alpha kinase GCN2, C-terminal kinase domain (EIF2AK4, Homo sapiens, UniProt Q9P2K8, S808G)).
The remaining binding was 100% (TAOK1 (Homo sapiens, UniProt Q7L7X3)).
The remaining binding was 91% (AXL (Homo sapiens, UniProt P30530)).
Myosin-IIIb (MYO3B, Homo sapiens, UniProt Q8WXR4) — remaining binding: 100%.
It gave 64% for remaining binding (ANKK1 (Homo sapiens, UniProt Q8NFD2)).
ALK (Homo sapiens, UniProt Q9UM73, L1196M) — remaining binding: 100%.
EPHA3 (Homo sapiens, UniProt P29320) — remaining binding: 95%.
PDGFRA (Homo sapiens, UniProt P16234) — remaining binding: 92%.
The remaining binding was 100% (CDKL5 (Homo sapiens, UniProt O76039)).
STK25 (Homo sapiens, UniProt O00506) — remaining binding: 100%.
The remaining binding was 90% (NEK1 (Homo sapiens, UniProt Q96PY6)).
TNIK (Homo sapiens, UniProt Q9UKE5) — remaining binding: 83%.
The remaining binding was 96% (Aurora kinase C (AURKC, Homo sapiens, UniProt Q9UQB9)).
It gave 89% for remaining binding (PHKG2 (Homo sapiens, UniProt P15735)).
The remaining binding was 95% (HCK (Homo sapiens, UniProt P08631)).

Series 3
Organism: Arabidopsis thaliana
Strain: Col-0
Concentration: 6.25 µg/mL
Setting: seed germination
`CC(C)(C)c1ccc(Oc2ccc3c(c2)OC(O)(C(=O)O)C(=O)N3Cc2ccccc2)cc1` (centres unmarked) gave a root length of 0.92 cm.
The root length of `Cc1ccc2c(c1)OC(O)(C(=O)O)C(=O)N2Cc1ccccc1` (centres unmarked) is reported as 1.14 cm.
`O=C(O)C1Oc2cc(F)ccc2N(Cc2ccccc2)C1=O` (centres unmarked) gave a root length of 1.06 cm.
With `O=C(O)C1(O)Oc2cc(Cl)ccc2N(Cc2ccccc2)C1=O` (centres unmarked) the root length was 1.22 cm.

Series 4
Compound: NC/C(=C\F)COc1ccc(Cn2c(=S)[nH]c(=O)c3[nH]cnc32)cc1
Observed: enzyme activity
MPO: Myeloperoxidase (MPO, Homo sapiens, UniProt P05164)
UniProt P05164, sequence (whole entry, looked up): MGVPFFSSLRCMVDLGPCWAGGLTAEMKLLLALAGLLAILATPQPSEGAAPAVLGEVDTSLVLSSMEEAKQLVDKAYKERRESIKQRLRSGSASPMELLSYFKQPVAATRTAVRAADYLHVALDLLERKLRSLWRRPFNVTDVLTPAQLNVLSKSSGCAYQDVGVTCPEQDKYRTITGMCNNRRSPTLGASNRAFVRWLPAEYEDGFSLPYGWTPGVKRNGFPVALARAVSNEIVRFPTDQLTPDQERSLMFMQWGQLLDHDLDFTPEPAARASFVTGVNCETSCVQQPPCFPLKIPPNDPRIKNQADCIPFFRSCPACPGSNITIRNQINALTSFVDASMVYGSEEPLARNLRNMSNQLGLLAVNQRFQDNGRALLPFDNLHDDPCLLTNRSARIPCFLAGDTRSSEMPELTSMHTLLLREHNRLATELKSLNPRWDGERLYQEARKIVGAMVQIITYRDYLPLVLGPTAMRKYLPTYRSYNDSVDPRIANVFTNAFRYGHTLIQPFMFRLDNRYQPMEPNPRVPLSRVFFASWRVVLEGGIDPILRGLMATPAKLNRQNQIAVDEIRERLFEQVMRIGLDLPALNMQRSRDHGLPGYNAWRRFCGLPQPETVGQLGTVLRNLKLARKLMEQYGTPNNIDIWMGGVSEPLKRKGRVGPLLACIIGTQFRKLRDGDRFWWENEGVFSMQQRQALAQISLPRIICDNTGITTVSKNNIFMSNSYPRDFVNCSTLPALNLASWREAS
AOC3: Amine oxidase [copper-containing] 3 (AOC3, Homo sapiens, UniProt Q16853)
UniProt Q16853, sequence (whole entry, looked up): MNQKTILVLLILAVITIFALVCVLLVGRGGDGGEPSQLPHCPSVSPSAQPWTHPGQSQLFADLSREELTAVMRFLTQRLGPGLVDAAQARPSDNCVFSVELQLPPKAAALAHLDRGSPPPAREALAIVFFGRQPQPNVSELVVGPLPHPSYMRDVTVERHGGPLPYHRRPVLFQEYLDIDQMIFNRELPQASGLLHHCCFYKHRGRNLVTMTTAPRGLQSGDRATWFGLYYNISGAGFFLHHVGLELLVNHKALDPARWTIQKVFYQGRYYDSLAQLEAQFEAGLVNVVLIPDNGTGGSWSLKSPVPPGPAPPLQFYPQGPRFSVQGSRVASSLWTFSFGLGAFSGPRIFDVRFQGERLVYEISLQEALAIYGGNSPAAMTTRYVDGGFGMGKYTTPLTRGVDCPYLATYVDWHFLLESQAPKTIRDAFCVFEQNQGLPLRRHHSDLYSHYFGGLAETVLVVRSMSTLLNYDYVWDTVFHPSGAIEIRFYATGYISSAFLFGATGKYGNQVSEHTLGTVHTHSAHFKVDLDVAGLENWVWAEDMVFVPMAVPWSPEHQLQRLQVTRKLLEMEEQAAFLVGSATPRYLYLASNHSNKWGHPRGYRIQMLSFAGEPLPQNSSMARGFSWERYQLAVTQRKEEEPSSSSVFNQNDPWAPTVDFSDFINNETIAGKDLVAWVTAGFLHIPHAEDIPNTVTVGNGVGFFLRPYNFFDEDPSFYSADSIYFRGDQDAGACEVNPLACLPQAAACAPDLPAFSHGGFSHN
For MPO; 0.0051 µM: inhibition read 0.309% and -3.99%.
For MPO; 11.11 µM: inhibition read 25.9% and 28.9%.
It gave -5.47% for inhibition (MPO; inhibitor, fluorescence; 4.6 nM).
For AOC3; inhibitor, fluorescence; 3 µM: inhibition read 104%.
It gave 75.2% for inhibition (AOC3; inhibitor, fluorescence; 4.1 nM).
AOC3; inhibitor, fluorescence; 1.4 nM — inhibition: 37.6%.

Single results of other studies
KRAS G12D: GTPase KRas (KRAS, Homo sapiens, UniProt P01116, G12D)
`Cc1ncsc1-c1ccc(C(CO)NC(=O)C2CC(O)CN2C(=O)C(C(C)C)n2cc(-c3ccc(COc4c(-c5c(C)c(F)cc6[nH]ncc56)c(C5CC5)cc5c(N6CC7CC6CN7)nc(OC6CCOCC6)nc45)cc3)nn2)cc1` (centres unmarked) gave a DC50 of 11.8 nM (KRAS G12D; degrader, In-Cell ELISA; PK-59, control siRNA; 1440 min).
`CCN1CCN(Cc2ccc(COc3c(-c4c(C)c(F)cc5[nH]ncc45)c(C4CC4)cc4c(N5C[C@@H]6C[C@H]5CN6)nc(OC5CCOCC5)nc34)cc2)C(=O)C1` gave an ERK1/2 phosphorylation of 120% and 115% and 124% and 131% (A-375 (KRAS wild type); in-cell ELISA, refers to: phospho-ERK1/2; 30 nM, 2 h).
`Cc1ncsc1-c1ccc(C(CO)NC(=O)C2CC(O)CN2C(=O)C(NC(=O)c2ccc(COc3c(-c4c(C)c(F)cc5[nH]ncc45)c(C4CC4)cc4c(N5CC6CC5CN6)nc(OC5CCOCC5)nc34)cc2)C(C)C)cc1` (centres unmarked) has a DC50 of 82.6 nM and 194 nM and 73.4 nM (KRAS G12D; degrader, In-Cell ELISA; AsPC-1 (KRAS G12D); 24 h).
`Cc1ncsc1-c1ccc(C2(NC(=O)C3CC(O)CN3C(=O)C(NC(=O)c3ccc(COc4c(-c5c(C)c(F)cc6[nH]ncc56)c(C5CC5)cc5c(N6CC7CC6CN7)nc(OC6CCOCC6)nc45)cc3)C(C)(C)C)CC2)cc1` (centres unmarked) has a phospho-ERK1/2 level of 83.7% and 81.3% and 88.5% and 80% and 98.8% and 98.2% (AsPC-1; in-cell ELISA; 100 nM, individual replicates).
